Values quoted from earlier work that unrelated publications cite.
Lines come from different studies, so protocols differ. Numbers after ± are the reported error.

SMILES | tested on | test | system | setting | how to read | measurement | value
Cc1ccccc1-c1cc(N2CCN(C)CC2)ncc1N(C)C(=O)C(C)(C)c1cc(C(F)(F)F)cc(C(F)(F)F)c1 | – | – | healthy volunteers, plasma | oral, dose not given, netupitant-palonosetron alone, rifampicin study | – | Vz/F | 2540 L
O=C1c2ccccc2-c2c1c1ccc([N+](=O)[O-])cc1c(=O)n2CCCN1CCOCC1 | colon HCT-116 | cell growth | – | – | – | GI50 | 0.038 µM
O=C(O)CNC(=O)c1ccccc1[131I] | – | – | normal rat, liver | 10 min, with: co-injected 99mTc-1 | – | percent injected dose | 4 ± 0.7 %ID
CC[C@H](C)CCCCC(=O)N[C@@H](CCN)C(=O)N[C@H](C(=O)N[C@@H](CCN)C(=O)N[C@H]1CCNC(=O)[C@H]([C@@H](C)O)NC(=O)[C@H](CCN)NC(=O)[C@H](CCN)NC(=O)[C@H](CC(C)C)NC(=O)[C@@H](Cc2ccccc2)NC(=O)[C@H](CCN)NC1=O)[C@@H](C)O | – | – | human patients with renal insufficiency | intravenous, dose not given, population PK model | – | central volume of distribution | 6.98 L
COc1cccc2c1C(=O)c1c(O)c3c(c(O)c1C2=O)C[C@@](O)(C(=O)CO)C[C@@H]3O[C@H]1C[C@H](N)[C@H](O)[C@H](C)O1 | hiPSC-derived cardiomyocytes | contractility | – | concentration not given, 72 h, at effective concentration | reference: baseline | log2 fold change | 0.6
O=C1c2ccccc2-c2c1c1ccc([N+](=O)[O-])cc1c(=O)n2C[C@H](O)CO | renal SN12C | cell growth | – | – | – | GI50 | 0.241 µM
Cc1ccc(Nc2nccc(N(C)c3ccc4c(C)n(C)nc4c3)n2)cc1S(N)(=O)=O | hiPSC-derived cardiomyocytes | contractility | – | concentration not given, 72 h, at effective concentration | reference: baseline | log2 fold change | 1.19
O=C1c2cccc3c2[C@H](CCC3)CN1[C@@H]1CN2CCC1CC2 | – | – | healthy volunteers | oral, 0.75 mg single dose, mean, with: netupitant 450 mg | – | half-life | 38.5 h
O=C1c2ccccc2-c2c1c1ccc([N+](=O)[O-])cc1c(=O)n2CCCn1ccnc1 | melanoma UACC-62 | cell growth | – | – | – | GI50 | 0.012 µM
CC(C)(C)c1nc(-c2cccc(NS(=O)(=O)c3c(F)cccc3F)c2F)c(-c2ccnc(N)n2)s1 | hiPSC-derived cardiomyocytes | contractility | – | 72 h | – | lowest effective concentration | 36.8 µM
